Values quoted from earlier work that unrelated publications cite.
Protocols differ between the studies behind these lines. ± gives the spread as reported.
Sequence of UniProt P51589 (whole entry, looked up): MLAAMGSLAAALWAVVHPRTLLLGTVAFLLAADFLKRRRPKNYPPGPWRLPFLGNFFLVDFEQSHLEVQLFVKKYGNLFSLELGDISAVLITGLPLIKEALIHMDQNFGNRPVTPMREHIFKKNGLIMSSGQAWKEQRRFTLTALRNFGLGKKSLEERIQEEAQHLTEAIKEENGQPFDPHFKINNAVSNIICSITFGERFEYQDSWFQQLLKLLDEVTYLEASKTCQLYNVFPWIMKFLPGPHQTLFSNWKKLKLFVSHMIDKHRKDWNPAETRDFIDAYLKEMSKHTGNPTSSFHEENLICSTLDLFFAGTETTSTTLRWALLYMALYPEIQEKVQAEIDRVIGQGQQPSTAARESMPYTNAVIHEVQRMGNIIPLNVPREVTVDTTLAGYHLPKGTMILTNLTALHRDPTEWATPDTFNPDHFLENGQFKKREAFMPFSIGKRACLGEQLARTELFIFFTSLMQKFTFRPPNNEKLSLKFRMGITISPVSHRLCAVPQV

CC(=O)Nc1c(C(C)=O)c(=O)n(C)c2nc(-c3ccc(Cl)cc3Cl)c(-c3ccc(Cl)cc3)cc12
Ki (ADORA3; MSD Pharma Taiwan panel screen): 773 nM

Fc1ncccc1-c1ccc2c(n1)[nH]c1ccncc12
Kd (binding, Scatchard analysis, measured: tau aggregates; progressive supranuclear palsy brain tissue): 9.4 nM

CN(C)C(=O)Cn1cc(-c2nc(C3(c4ccc(-c5cnc(N)nc5)cc4)CC3)no2)cn1
IC50 (ALOX5AP; biochemical activity): 670 nM

COc1cccc2c1C(=O)c1c(O)c3c(c(O)c1C2=O)C[C@@](O)(C(=O)CO)C[C@@H]3O[C@H]1C[C@H](N)[C@H](O)[C@H](C)O1
Ki (Cytochrome P450 2J2 (CYP2J2, Homo sapiens, UniProt P51589); competitive binding; added: ebastine): 13800 ± 1600 nM

CCNC(=O)c1cc2c(N3CCOC[C@H]3C)ccnc2n1C
IC50 (NUDT1; biochemical): > 20000 nM

OC(CCN1CCCC1)(c1ccccc1)C1CCCCC1 (centres unmarked)
activity (Cryptosporidium parvum; high-throughput screen; concentration not given): inactive

O=C(c1cc(Cc2n[nH]c(=O)c3ccccc23)ccc1F)N1CCN(C(=O)C2CC2)CC1
Cmax at steady state (human; oral, dose not given, capsule): 5700 ng/mL

O=C(NCc1ncc(C(F)(F)F)cc1Cl)c1ccc2c(c1)C1(CCS(=O)(=O)CC1)[C@@H](C1CC1)N2S(=O)(=O)c1ccc(F)cc1
IC50 (GNRHR; cellular activity): 2400 nM

For quick reference, copied from above:
OC(CCN1CCCC1)(c1ccccc1)C1CCCCC1 (centres unmarked)
activity (Cryptosporidium parvum; high-throughput screen; concentration not given): inactive
